Results gathered from unrelated publications.
Parts stem from different laboratories: compare values within a part only.

Sample 1
Target: Phosphate system positive regulatory protein PHO4, full length, GST-tagged (PHO4, Saccharomyces cerevisiae, UniProt P07270, residues 1-312)
Technique: competition protein-binding microarray
Molecule type: double-stranded DNA, one strand shown
Matrix: in vitro
Tested at: 2 µM
Setting: whole 60-bp probe, lowest competitor level
Together with: Cbf1 competitor, 0.05 µM
Reading: higher = stronger binding
Shared flanks, not repeated: … GTCTTGATTCGCTTGACGCTGCTG
Construct (chain): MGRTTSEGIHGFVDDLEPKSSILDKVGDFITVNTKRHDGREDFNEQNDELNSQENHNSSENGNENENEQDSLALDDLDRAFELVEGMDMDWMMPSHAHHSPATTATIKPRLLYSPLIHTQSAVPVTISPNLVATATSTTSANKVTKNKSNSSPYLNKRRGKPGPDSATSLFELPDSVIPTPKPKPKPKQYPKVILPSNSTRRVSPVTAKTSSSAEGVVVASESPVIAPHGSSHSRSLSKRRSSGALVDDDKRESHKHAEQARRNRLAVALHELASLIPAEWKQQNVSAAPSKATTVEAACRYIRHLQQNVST
Sequence	fluorescence intensity
AAAGAAGAAGAAACCTCCGTGGGTAATCGTTTGAAT	5110 a.u.
CTTTCCCGATCTTGGACTGTGGGTGTAGCACATTTG	4850 a.u.
CATACCCAACCTTGTCTTGTGGGTGAAGATATTTGT	4660 a.u.
CGGGGTTAAGTTTGTCAGGTGGGTGGCTTGCAGCAG	6280 a.u.
CCGGCGCTGCTAAATCATGTGAGTTTAGCGCGTACC	4990 a.u.

Sample 2
Target: Cyclic AMP-dependent transcription factor ATF-1 (ATF1, Homo sapiens, UniProt P18846, residues 1-271, full length assumed)
Technique: protein-binding microarray
Molecule type: double-stranded DNA, one strand shown
Matrix: in vitro
Tested at: not given
Setting: k-mer, scored over probes, only values ≥0.25
Reading: higher = stronger binding
Target sequence (chain): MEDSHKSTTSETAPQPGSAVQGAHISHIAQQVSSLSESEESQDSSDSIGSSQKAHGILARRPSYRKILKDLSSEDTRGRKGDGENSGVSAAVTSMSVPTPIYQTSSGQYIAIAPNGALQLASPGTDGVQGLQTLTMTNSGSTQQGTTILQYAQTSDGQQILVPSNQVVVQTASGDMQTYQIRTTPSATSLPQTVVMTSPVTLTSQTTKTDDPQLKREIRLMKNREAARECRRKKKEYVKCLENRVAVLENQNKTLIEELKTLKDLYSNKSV
Sequence	E-score
CGTGGTA	0.278
AAACGTG	0.25
AACGTAT	0.294
ATCCACG	0.259
ACGTATG	0.406

Sample 3
Target: Histone acetyltransferase KAT6A, winged helix 2, GST fusion (KAT6A, Homo sapiens, UniProt Q92794, residues 85-181)
Technique: protein binding microarray
Molecule type: double-stranded DNA, one strand shown
Matrix: in vitro
Tested at: not given
Setting: 8-mer, flanks averaged, mean of 2 arrays, mostly near background
Baseline: not given
Reading: higher = stronger binding
Residues (chain): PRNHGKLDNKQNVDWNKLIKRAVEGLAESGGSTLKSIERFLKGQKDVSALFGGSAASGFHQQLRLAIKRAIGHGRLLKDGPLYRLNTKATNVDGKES
Sequence	E-score
AGGCGTTA	-0.142
ATAGCTAA	-0.189
AACGGGAT	-0.0452
AGAGAAAC	0.0495

Single results of other studies
Molecule	target	test	system	setting	scale	quantity	value
PhoQ, residues 284 288 289 292 302 303 NSMLDC	PhoP, residues 12 14 15 18 19 VHSCL (Escherichia coli, UniProt P23836)	Sort-seq, refers to: YFP reporter	E. coli	PhoQ-PhoP variant library, together with: 10 µM Mg2+	baseline: high Mg2+ state, higher = stronger signaling	fold induction	8.05
